Published values collected from several papers.
Numbers after ± are the reported error.

| Compound | test | system | setting | scale | quantity | result |
| --- | --- | --- | --- | --- | --- | --- |
| CC[C@H](C)[C@H](NC(=O)[C@H](CC(C)C)NC(=O)[C@H](Cc1c[nH]c2ccccc12)NC(=O)[C@H](C)NC(=O)[C@@H](NC(=O)[C@H](Cc1ccccc1)NC(=O)[C@H](CC(=O)O)NC(=O)[C@H](CCCNC(=N)N)NC(=O)[C@H](C)NC(=O)[C@H](C)NC(=O)[C@H](CC(C)C)NC(=O)[C@H](C)NC(=O)[C@H](CC(=O)O)NC(=O)[C@H](CC(C)C)NC(=O)[C@@H](NC(=O)[C@@H](NC(=O)[C@H](C)NC(=O)[C@H](CC(C)C)NC(=O)[C@H](CCC(=O)O)NC(=O)[C@H](CO)NC(=O)[C@H](CO)NC(=O)[C@H](Cc1ccccc1)NC(=O)[C@@H](NC(=O)CNC(=O)[C@H](CCC(=O)O)NC(=O)CNC(=O)[C@@H](N)Cc1c[nH]cn1)[C@@H](C)O)[C@@H](C)O)[C@@H](C)CC)[C@@H](C)CC)C(=O)N[C@@H](C)C(=O)N[C@H](C(=O)N[C@@H](CCCCN)C(=O)N[C@H](C(=O)N[C@H](C(=O)N[C@@H](CC(=O)O)C(=O)N[C@@H](CCCCN)C(=O)O)[C@@H](C)O)[C@@H](C)CC)[C@@H](C)O | immunoaffinity LC-MS/MS | healthy human subjects, plasma | intravenous infusion, 1 mg single dose, infused over 15 min |  | AUClast | 1.58 nM·h |
| O=C(Cc1ccc(OCc2ccccc2)cc1)NC1(C(=O)O)CCN(C(=O)c2ccc(-c3cccc(Cl)c3)cc2)CC1 |  | BALB/c mice female | intraperitoneal, 20 mg/kg |  | apparent clearance (CL/F) | 50.1 mL/min/kg |
| Oc1cccc(-c2cccc(O)n2)n1.[Cl-].[Cl-].[Ru+2].c1cnc2c(c1)c1c(c3cccnc32)OCCO1.c1cnc2c(c1)c1c(c3cccnc32)OCCO1 | shake flask | octanol/phosphate buffer | pH 6.00 |  | logD | 1.45 |
| NCCCC(=O)OCC(=O)c1ccc(O)c(F)c1F.O=C(O)C(F)(F)F | photolysis at 300 nm | ammonium acetate buffered acetonitrile-water | pH 5.0, 0.01 mol/L buffer |  | quantum yield of disappearance | 0.16 |
| Cc1[nH]c(/C=C2\C(=O)Nc3ccc(F)cc32)c(C)c1NC(=O)CCN1CCN(C)CC1 |  | dog plasma | 1.00 ng/mL, 24 h in injector after processing, 4 °C |  | accuracy deviation | 0.18% |
| CC(C)c1cnc(-c2cc(Cl)ccc2F)cc1Nc1ccncc1C(=O)NC(CO)CO | refers to: hepatic haemorrhage | human patients | oral, dose not given, grade 3 |  | patients with related SAE | 2.4% |
| CCCC[C@H](NC(=O)CNC(=O)CNC(=O)CN1CCN(CC(=O)O)CCN(CC(=O)O)CCN(CC(=O)O)CC1)C(=O)N[C@H]1CC(=O)NCCCC[C@@H](C(N)=O)NC(=O)[C@H](Cc2c[nH]c3ccccc23)NC(=O)[C@H](CCCNC(=N)N)NC(=O)[C@@H](Cc2ccccc2)NC(=O)[C@H](Cc2c[nH]cn2)NC1=O [copper-64 labelled] |  | female C57 mouse, B16/F1 melanoma | intravenous, 0.037 MBq, 0.5 h | baseline: tumour over lung | uptake ratio | 1.49 |
| O=[N][Fe]1([N]=O)[S](CCO)[Fe]([N]=O)([N]=O)[S]1CCO | EPR | mouse plasma |  |  | conversion to protein-bound form | 76 to 100% |
| CCOc1c(C(C)(C)O)sc2cnc(Nc3ccc(N4CCC(N5CC6(COC6)C5)CC4)cc3OC)nc12 |  | New Zealand rabbit, male, isolated Purkinje fibres | 30 µM, 45 min, pacing 0.25 Hz |  | APD50 change | -18 ± 5% |
| COc1ccc(/C=C/c2ccc(-c3ccc(C)cn3)nc2)cc1 | TCSPC | CHCl3 |  |  | radiative decay rate constant | 0.52 ns⁻¹ |
| NCCCC(=O)OCC(=O)c1c(F)cc(O)cc1F.O=C(O)C(F)(F)F | photolysis, refers to: GABA appearance | unbuffered water |  |  | quantum yield | 0.16 |
| O=C([O-])CN1CCN(CC(=O)[O-])CCN(C(CCC(=O)NCCCCCN(CCCC[C@H](NC(=O)N[C@@H](CCC(=O)O)C(=O)O)C(=O)O)C(=O)c2ccc(I)cc2)C(=O)O)CCN(CC(=O)[O-])CC1.[68Ga+3] (some centres unmarked) |  | healthy volunteers and patients | dose not given |  | safety and tolerability | not toxic |
| CC(C)(C)ONc1nc(Nc2ccnc(C(F)(F)F)c2)nc(-c2cccc(C(F)(F)F)n2)n1 |  | female Balb/cA nude mice xenograft | oral, 18.05 mg/kg, AUC(0-24 h) | baseline: tumour over plasma | tissue/plasma ratio | 7.6 |
| Cn1c(=O)oc2ccc(-c3ccc(CC(C#N)NC(=O)C4CNCCCO4)c(F)c3)cc21 (centres unmarked) | refers to: macule | human | 60 mg single dose, fasted |  | subjects with TRAE | 0% |
| FC(F)(F)c1ccnc(-c2cc(C(F)(F)F)ccn2)c1.FC(F)(F)c1ccnc(-c2cc(C(F)(F)F)ccn2)c1.[Cl-].[Cl-].[Ru+2].c1csc(-c2ccc(-c3ccc(-c4nc5c6cccnc6c6ncccc6c5[nH]4)s3)s2)c1 | shake-flask | 10 mM phosphate buffer | pH 7.4, chloride salt |  | logD (octanol/water) | positive |
| CC[C@H](C)[C@H](NC(=O)[C@H](Cc1ccc(O)cc1)NC(=O)[C@H](CCCNC(=N)N)NC(=O)[C@H](CCCNC(=N)N)NC(=O)[C@H](CC(C)C)NC(=O)[C@H](CC(=O)O)NC(=O)[C@H](C)NC(=O)[C@H](C)NC(=O)[C@H](Cc1ccc(O)cc1)NC(=O)[C@H](CCC(N)=O)NC(=O)[C@H](C)NC(=O)[C@H](CCSC)NC(=O)[C@H](CCC(N)=O)NC(=O)[C@H](CCC(=O)O)NC(=O)[C@@H]1CCCN1C(=O)[C@@H](NC(=O)[C@H](C)NC(=O)[C@H](CC(N)=O)NC(=O)[C@H](CC(=O)O)NC(=O)CNC(=O)[C@@H]1CCCN1C(=O)[C@H](Cc1ccc(O)cc1)NC(=O)[C@@H](NC(=O)[C@@H]1CCCN1C(=O)[C@H](CCC(=O)O)NC(=O)[C@H](CC(C)C)NC(=O)[C@@H]1CCCN1C(=O)[C@H](C)N)C(C)C)[C@@H](C)O)C(=O)N[C@@H](CC(N)=O)C(=O)N[C@@H](CCSC)C(=O)N[C@@H](CC(C)C)C(=O)N[C@H](C(=O)N[C@@H](CCCNC(=N)N)C(=O)N1CCC[C@H]1C(=O)N[C@@H](CCCNC(=N)N)C(=O)N[C@@H](Cc1ccc(O)cc1)C(N)=O)[C@@H](C)O | dynamic light scattering | PBS | 4 µM, pH 7.4, larger population, no SSM |  | hydrodynamic diameter | 773 ± 163 nm |
| CC(C)(O)c1ncc([S@](N)(=O)=NC(=O)Nc2c3c(cc4c2CCC4)CCC3)s1 |  | healthy human | oral, 200 mg once daily, day 1, spray-dried dispersion, geometric mean |  | AUC(0-tau) | 163 µg·h/mL |
| COc1cc(NC(C)=O)c2c(c1O)-c1c(OC)c(OC)cc3c1C(C2)N(C)CC3 (centres unmarked) |  | rat kidney homogenate | 0.5 µg/mL, 40 d, -20 °C, long-term storage |  | remaining compound | 100 ± 1.7% |
| CCCCN1C(=O)c2cccc3c(NCCCN4CCOCC4)ccc(c23)C1=O |  | aqueous medium | pH 6 |  | fluorescence brightness | 5080 M⁻¹ cm⁻¹ |
| CC(C)[C@H](NC(=O)[C@@H]1CCCN1C(=O)[C@H](CCCNC(=N)N)NC(=O)[C@H](CS)NC(=O)[C@H](Cc1c[nH]c2ccccc12)NC(=O)[C@H](CCCNC(=N)N)NC(=O)[C@@H](Cc1ccccc1)NC(=O)[C@H](Cc1c[nH]cn1)NC(=O)[C@H](CCC(=O)O)NC(=O)[C@H](CS)NC(=O)[C@H](CS)NC(=O)CNC(=O)[C@@H]1CC(=O)N[C@@H](CCCNC(=N)N)C(=O)NCC(=O)N[C@@H](CC(=O)O)C(=O)N[C@H](Cc2ccc(O)cc2)C(=O)N1)C(N)=O [technetium-99m labelled] |  | C57 mouse, female, B16/F1 melanoma | intravenous, 0.037 MBq, 4 h | baseline: tumour over lung | tumour to tissue ratio | 7.07 |
| Cc1ccccc1/N=N/c1ccc(/N=N/c2c(O)ccc3ccccc23)c(C)c1 |  | extracted rat blood QC samples | 0.2 µg/L, 2 h, room temperature, short-term stability |  | measured concentration | 0.216 µg/L |
| CCNC(=O)OCc1c(COC(=O)NCC)c(-c2ccc(OC)cc2)n2c1Cc1ccccc1-2 |  | BALB/c nude mice, blood | dose not given, day 10 |  | mean cell volume | 52.7 ± 0.5 fL |
| CCCCCCCCCCCCCCCC(=O)N[C@@H](CCCCNC(=O)[C@H](CCCCNC(=O)CCC(=O)NCCN(C)CCNc1ccnc2cc(C(F)(F)F)ccc12)NC(=O)CCC(=O)NCCN(C)CCNc1ccnc2cc(C(F)(F)F)ccc12)C(=O)N[C@@H](CS)C(=O)NCC(=O)NCC(=O)NCC(=O)N[C@@H](C)C(=O)N[C@@H](CCCNC(=N)N)C(=O)N[C@@H](CCCCN)C(=O)N[C@@H](CCCCN)C(=O)N[C@@H](C)C(=O)N[C@@H](C)C(=O)N[C@@H](CCCCN)C(=O)N[C@@H](C)C(=O)N[C@@H](C)C(=O)N[C@@H](CCCNC(=N)N)C(=O)N[C@@H](CCCCN)C(=O)N[C@@H](CCCCN)C(=O)N[C@@H](C)C(=O)N[C@@H](C)C(=O)N[C@@H](CCCCN)C(=O)N[C@@H](C)C(=O)N[C@@H](C)C(=O)N[C@@H](CCCNC(=N)N)C(=O)N[C@@H](CCCCN)C(=O)N[C@@H](CCCCN)C(=O)N[C@@H](C)C(=O)N[C@@H](C)C(=O)N[C@@H](CCCCN)C(=O)N[C@@H](C)C(=O)N[C@@H](C)C(=O)N[C@@H](CCCNC(=N)N)C(=O)N[C@@H](CCCCN)C(=O)N[C@@H](CCCCN)C(=O)N[C@@H](C)C(=O)N[C@@H](C)C(=O)N[C@@H](CCCCN)C(=O)N[C@@H](C)C(N)=O | dynamic light scattering | PBS | 40 min, 25 °C, 140:1 ratio, with: siRNA |  | particle diameter | 107 ± 3.2 nm |
| NCCC(=O)N1Cc2ccccc2-c2c(nnn2-c2cn(C3OC(CO)C(O)C3O)c(=O)[nH]c2=O)-c2ccccc21 (mixture of isomers) |  | methanol |  |  | brightness | 0.09 M⁻¹ cm⁻¹ |
| CC(C)CCCC(C)CCCC(C)CCO[C@@H]1O[C@H](CO)[C@@H](O[C@H]2O[C@H](CO)[C@@H](O)[C@H](O)[C@H]2O)[C@H](O)[C@H]1O (some centres unmarked) | dynamic surface tension |  | 0.0036 mmol/L |  | induction time | 180 s |
| C=CCc1ccc(O)c(-c2cc(CC=C)ccc2OCCCCCCCCCC[P+](c2ccccc2)(c2ccccc2)c2ccccc2)c1 |  | C57BL/6 mouse, non-tumour-bearing, serum | dose not given, day 31 |  | glucose level | 160 ± 18.6 mg/dL |
